Results gathered from unrelated publications.
Compare with care: the assays were run in different laboratories. ± marks the error that the study gave.
UniProt P05181, sequence (whole entry, looked up): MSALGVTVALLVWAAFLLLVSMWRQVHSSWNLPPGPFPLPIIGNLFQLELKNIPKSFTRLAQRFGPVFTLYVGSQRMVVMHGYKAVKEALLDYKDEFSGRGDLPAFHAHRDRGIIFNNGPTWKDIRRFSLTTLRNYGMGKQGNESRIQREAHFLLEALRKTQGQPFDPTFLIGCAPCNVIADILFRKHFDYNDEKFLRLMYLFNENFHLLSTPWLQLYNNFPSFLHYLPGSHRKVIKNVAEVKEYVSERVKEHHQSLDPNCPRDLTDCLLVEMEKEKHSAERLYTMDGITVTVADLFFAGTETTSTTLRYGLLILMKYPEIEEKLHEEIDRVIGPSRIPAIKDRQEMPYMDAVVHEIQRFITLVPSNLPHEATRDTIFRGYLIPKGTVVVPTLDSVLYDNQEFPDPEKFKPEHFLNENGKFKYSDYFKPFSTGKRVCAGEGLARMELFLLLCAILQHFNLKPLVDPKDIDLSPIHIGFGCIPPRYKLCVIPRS
UniProt P05177, sequence (whole entry, looked up): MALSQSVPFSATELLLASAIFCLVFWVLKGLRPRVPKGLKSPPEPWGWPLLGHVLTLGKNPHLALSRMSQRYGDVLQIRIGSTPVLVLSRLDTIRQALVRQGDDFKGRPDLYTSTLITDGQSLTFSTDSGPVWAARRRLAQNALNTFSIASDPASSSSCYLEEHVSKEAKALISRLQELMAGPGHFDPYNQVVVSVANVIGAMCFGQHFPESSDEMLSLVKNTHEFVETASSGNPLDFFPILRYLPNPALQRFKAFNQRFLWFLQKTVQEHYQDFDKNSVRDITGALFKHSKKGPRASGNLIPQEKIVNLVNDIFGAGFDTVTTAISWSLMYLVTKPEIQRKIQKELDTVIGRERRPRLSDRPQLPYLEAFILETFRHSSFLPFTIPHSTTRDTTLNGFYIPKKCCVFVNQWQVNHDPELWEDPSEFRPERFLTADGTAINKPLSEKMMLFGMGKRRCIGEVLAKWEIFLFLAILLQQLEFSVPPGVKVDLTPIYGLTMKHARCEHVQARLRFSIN
UniProt P08684, sequence (whole entry, looked up): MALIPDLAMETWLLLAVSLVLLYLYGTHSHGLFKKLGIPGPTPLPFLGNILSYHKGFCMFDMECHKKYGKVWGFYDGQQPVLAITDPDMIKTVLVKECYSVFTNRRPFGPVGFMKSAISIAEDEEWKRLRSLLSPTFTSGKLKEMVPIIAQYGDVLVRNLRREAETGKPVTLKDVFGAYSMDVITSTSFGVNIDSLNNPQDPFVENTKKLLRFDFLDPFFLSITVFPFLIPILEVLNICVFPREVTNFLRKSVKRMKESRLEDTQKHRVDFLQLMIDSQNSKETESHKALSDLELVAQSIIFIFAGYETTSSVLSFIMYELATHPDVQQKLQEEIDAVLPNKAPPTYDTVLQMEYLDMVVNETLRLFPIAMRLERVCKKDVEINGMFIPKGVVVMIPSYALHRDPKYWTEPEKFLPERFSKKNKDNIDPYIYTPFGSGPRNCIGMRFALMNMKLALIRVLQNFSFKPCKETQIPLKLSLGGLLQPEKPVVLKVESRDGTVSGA

`[64Cu+2].c1cnc(CNCc2ccc(CN3CCCN4CCNCCCN(CC4)CC3)cc2)nc1` has a tissue uptake of 3.32 ± 0.27 %ID/g (CXCR4; NOD/SCID mouse, U87 and U87-stb-CXCR4 xenografts, stomach; iv, 30 min, ex vivo).
The radioactivity uptake of `C[C@]12CC[C@@H]3c4ccc(OCC(=O)N[C@@H](CCCCNC(=O)CN5CCN(CC(=O)[O-])CCN(CC(=O)[O-])CCN(CC(=O)[O-])CC5)C(=O)O)cc4CC[C@H]3[C@@H]1CCC2=O.[68Ga+3]` is reported as 1.02 ± 0.19 %ID/g (estrogen receptor; nude mice, MCF7 xenograft, tumour; dose not given, 2.5 h post-injection, added: estradiol blocking dose).
The log K of `COc1cc(-c2nc3ccccc3s2)cc(CN(C)Cc2ccccn2)c1O` is reported as 6.12 (Zn2+; UV-vis pH titration; M2+ + HL = [MHL]+ complex).
For `[64Cu+2].c1ccc(CNCc2ccc(CN3CCCN4CCNCCCN(CC4)CC3)cc2)nc1`, the tissue uptake was 1.3 ± 0.11 %ID/g (CXCR4; NOD/SCID mouse, U87 and U87-stb-CXCR4 xenografts, pancreas; iv, 480 min, ex vivo).
`C=CC(=O)Nc1cc(Nc2nccc(-c3cn(C)c4ccccc34)n2)c(OCC(F)(F)F)nc1N(C)CCN(C)C` has a remaining activity of greater than 50% (Cytochrome P450 1A2 (CYP1A2, Homo sapiens, UniProt P05177); enzyme activity, inhibitor; human liver microsomes; 100 µM, added: phenacetin (O-deethylation)).
For `O=C(O)c1cc(Br)c(O)c(Br)c1`, the Ki was 5000 nM (Cytochrome P450 2E1 (CYP2E1, Homo sapiens, UniProt P05181); p-nitrophenol hydroxylation, inhibitor; baculosomes; additive 100 µM).
`COc1ccc(CC(O)C(=O)O)cc1O` (stereo not drawn): demethylation “not detected” (cytochrome P450 (rat); substrate; NADPH-fortified rat liver microsomes).
`COc1cc(-c2nc3ccccc3s2)cc(CN(Cc2ccccn2)Cc2ccccn2)c1O` gave a log K of 6.68 (Zn2+; UV-vis pH titration; M2+ + HL = [MHL]+ complex).
`COc1ccc2cc(NC(=O)c3cc(-c4ccncc4)nc4ccccc34)ccc2c1` has a Ki of 70 nM (Cytochrome P450 3A4 (CYP3A4, Homo sapiens, UniProt P08684); inhibitor).

Some of these lines once more:
`COc1ccc2cc(NC(=O)c3cc(-c4ccncc4)nc4ccccc34)ccc2c1` has a Ki of 70 nM (Cytochrome P450 3A4 (CYP3A4, Homo sapiens, UniProt P08684); inhibitor).
